Assay results of several laboratories.
Every numbered part comes from another study and shows a few of its results, in no order.

Block 1 — method: protein-binding microarray; form: double-stranded DNA, one strand shown; matrix: in vitro; tested at: 2200 nM top; setting: 60-bp whole probe; together with: salmon DNA 0.4 mg/ml; reference: random background probes; direction: higher = stronger binding; quantity: fitted relative affinity; constant ends, left off below: GCCTAGCAC … GTCTTGATTCGCTTGACGCTGCTG
Target: Interferon regulatory factor 7, full length, phosphomimetic (IRF7, Homo sapiens, UniProt Q92985, residues 1-503, S471D/S472D/S475D/S476D/S477D/S483D/S484D/S487D)
Target sequence (chain): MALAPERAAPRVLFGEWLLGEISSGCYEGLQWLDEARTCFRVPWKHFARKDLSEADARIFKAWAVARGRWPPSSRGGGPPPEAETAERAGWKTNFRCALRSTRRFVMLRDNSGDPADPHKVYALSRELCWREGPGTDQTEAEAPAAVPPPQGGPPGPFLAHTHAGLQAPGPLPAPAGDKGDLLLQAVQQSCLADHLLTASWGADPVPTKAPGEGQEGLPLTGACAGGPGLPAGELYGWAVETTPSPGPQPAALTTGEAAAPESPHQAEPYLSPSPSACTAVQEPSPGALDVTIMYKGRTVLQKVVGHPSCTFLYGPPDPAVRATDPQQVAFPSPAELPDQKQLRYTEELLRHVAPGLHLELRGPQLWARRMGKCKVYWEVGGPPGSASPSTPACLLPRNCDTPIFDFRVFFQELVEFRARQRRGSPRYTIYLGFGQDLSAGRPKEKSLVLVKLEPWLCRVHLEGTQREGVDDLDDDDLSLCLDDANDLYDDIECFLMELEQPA
GGGCACGTTGTTTAACTTCTGTGCTAG: -0.251 z-score
TTAGGACTGGGTCTCGGTTTGTGCTAG: 0.684 z-score
TTAGGTTTCCTTATACTTTAGTGCTAG: 1.51 z-score
TTAGGTATCGTGTATCGGTTAGTGCTA: 0.621 z-score
TTCGGTATCGACTATCGGTTAGTGCTA: 1.05 z-score
GACGGTATCCGACTGCTGACGTGCTAG: 0.0561 z-score
GTCGGTTCCGGTTTCGGGACGTGCTAG: 6.29 z-score
TTCTCTATTGCTTTCTCTTTGTGCTAG: 5.12 z-score

Block 2 — method: RNA Bind-n-Seq; form: RNA; matrix: in vitro; tested at: not given; reference: input RNA pool; direction: higher = stronger binding; quantity: bound/input enrichment
Target: RING finger protein unkempt homolog, zinc fingers 1-6, GST-SBP tag (UNK, Homo sapiens, UniProt Q9C0B0, residues 30-357)
Sequence of UniProt Q9C0B0 (30-357, looked up): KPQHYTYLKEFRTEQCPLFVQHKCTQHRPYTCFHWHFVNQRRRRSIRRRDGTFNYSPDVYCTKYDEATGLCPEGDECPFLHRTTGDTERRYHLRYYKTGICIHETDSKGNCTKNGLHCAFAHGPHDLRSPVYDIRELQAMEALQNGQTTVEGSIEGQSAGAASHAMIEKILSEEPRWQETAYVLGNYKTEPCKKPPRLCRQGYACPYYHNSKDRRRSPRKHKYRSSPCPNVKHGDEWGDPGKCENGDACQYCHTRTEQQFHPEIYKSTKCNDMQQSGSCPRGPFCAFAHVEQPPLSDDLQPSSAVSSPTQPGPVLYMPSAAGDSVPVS
Setting: RNA with constant flanks, human and mouse sites, ends assumed
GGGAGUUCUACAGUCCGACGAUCCUGCCUGCCCCUCGGAGACCAAAGGUUAACAGCAUCUUGAAUCUCUUUGGAUCAUGGUUAUUUGAUGCAGCAUUUGUUCACUGUAAACUUCAUAAUGGGAUAAACAGAGACAGCAGCAUGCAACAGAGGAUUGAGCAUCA: 0.453 ratio
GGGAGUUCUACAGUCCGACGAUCAAAAAAAAGCAAAUCAGAAAACCCACGGUUUUUCUUUUUUUCUUUUUUUCUUUUUUUCUUUUUUUGCUUUAAAACAAAGGGAAAAAAGAGUUUAAACAAAAAACCCACAAUUGAACUUCCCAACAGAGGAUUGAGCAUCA: 0.245 ratio
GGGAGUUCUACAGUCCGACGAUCCCAGGCCCAGCCAAGUCAGAGUUUGACUUAGCAACUAUUUCUAGAAUUUUUUCAGCUCUUUUAGUGACAGCUUUUAAACCAUCAAUCUUUUUGUUUUGUUUUUUUGUUUUUCAAGACACGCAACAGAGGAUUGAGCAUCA: 32 ratio
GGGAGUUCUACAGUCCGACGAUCAUUCUUUUAUCACCAAAAAAGAGAAGAAAUAUUGCAGUGAAUGAAGAUUCCUCUGCAUUUUAGCACUGCUUUUUCAACUGUAGUUGGCUUUUGAAUGAGGAUGACAAUGGAAGAGAUGAACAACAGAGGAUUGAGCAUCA: 0.181 ratio
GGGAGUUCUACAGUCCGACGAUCUCCCCUCUGAACCCCAUAUCUUCUGUUUCAUAAUGCAGAAGUAUUCUUUUCAAUUAUAUUGUUAGUGGACUUGUUUUAAUUUUAGAGAAACUUUGAGUACAGAUACUGUGAGCUUACAUUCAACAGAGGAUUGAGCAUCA: 17.3 ratio
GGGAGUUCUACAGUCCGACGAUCGUAGAAUUCUGUCAUCCUGAAGACCAGCAGCUUCUAAGAGACAGCUUCCAACAGGUAGUGAAAUUAAAAGGCCAAGUGCUGUCUGUCAUGUUCCGGUUCCGGUCUAAGAACCAAGAAUGGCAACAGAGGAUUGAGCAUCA: 1.32 ratio
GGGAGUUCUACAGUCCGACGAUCAAUCGAAUUACAGCUGCCUCCCAGGAACAUGGCUUAAAGUACCCAGCAUUCAUUGUCAACUUAAUUAAGUGCCAGGUGGAGCUCAACAGGAAAGUUCUUGUGGACCUGGCCAUCUAUGAACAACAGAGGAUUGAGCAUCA: 0.152 ratio
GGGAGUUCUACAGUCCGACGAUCGAUUCCAAGCUAACAAGACUACUACAGGAUUCCCUCGGGGGUAAUAGCCAAACAAUCAUGAUAGCAUGUGUCAGCCCUUCAGACAGAGACUUUAUGGAAACGUUAAACACCCUGAAAUACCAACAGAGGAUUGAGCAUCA: 0.287 ratio

Block 3 — method: universal PBM; form: double-stranded DNA, one strand shown; matrix: in vitro; tested at: 600 nM; direction: higher = stronger binding; quantity: E-score
Target: Sal-like protein 4, full length isoform A (SALL4, Homo sapiens, UniProt Q9UJQ4, residues 1-1053)
Sequence of UniProt Q9UJQ4 (whole entry, looked up): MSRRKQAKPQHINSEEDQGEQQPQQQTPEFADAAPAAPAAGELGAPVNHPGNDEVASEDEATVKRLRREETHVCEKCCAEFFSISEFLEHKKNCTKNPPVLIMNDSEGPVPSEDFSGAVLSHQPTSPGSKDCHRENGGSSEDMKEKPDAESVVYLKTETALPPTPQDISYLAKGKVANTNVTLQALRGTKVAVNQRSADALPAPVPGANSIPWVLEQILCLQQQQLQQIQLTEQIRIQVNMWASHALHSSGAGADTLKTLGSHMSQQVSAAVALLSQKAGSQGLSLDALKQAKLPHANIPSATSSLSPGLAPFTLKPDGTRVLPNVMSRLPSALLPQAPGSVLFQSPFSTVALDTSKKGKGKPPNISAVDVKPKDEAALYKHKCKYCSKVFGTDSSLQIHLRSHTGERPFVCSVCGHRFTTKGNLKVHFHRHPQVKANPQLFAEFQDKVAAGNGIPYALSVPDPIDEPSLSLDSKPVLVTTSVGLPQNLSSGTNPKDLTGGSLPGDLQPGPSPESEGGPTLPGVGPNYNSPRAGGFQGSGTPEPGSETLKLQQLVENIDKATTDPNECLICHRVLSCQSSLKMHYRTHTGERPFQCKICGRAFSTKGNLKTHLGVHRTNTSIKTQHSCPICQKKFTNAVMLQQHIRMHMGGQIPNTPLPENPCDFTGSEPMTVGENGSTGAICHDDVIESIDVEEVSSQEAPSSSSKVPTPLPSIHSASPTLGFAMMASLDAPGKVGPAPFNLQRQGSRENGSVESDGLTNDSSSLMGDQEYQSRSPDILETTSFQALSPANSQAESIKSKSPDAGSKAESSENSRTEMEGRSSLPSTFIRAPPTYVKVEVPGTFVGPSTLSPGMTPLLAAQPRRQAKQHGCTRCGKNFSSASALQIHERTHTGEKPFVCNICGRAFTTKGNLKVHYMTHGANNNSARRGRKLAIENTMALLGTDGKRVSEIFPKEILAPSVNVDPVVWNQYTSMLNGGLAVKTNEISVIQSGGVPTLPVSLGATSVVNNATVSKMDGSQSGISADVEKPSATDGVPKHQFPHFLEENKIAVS
Setting: 8-mer, flanks averaged, mean of replicates
CTGCCAAC: -0.0704
CAACTGCA: 0.0309
ATCTTAGG: -0.0671
ATCCTTCA: 0.132
CCGCATCG: -0.318
AACGCGGA: -0.149
GATGCTAA: -0.0378
TGCCTTAA: 0.00281

Single results of other studies
CCCCOC(=O)c1ccc(N)cc1 — nuclei count (mouse MPNST tumor cells; high-content nuclear imaging, measured: cell number; 10 µM, 12 h, mean of 2 replicates; reference: plate mean, higher = more cells): 1.06 z-score
